Assay results gathered from unrelated publications.
Lines come from different studies, so protocols differ. Several values in a cell are separate wells, animals, samples, runs or records.
Technique: steady-state kinetics
B1: enzyme (Arabidopsis thaliana, UniProt O80970); chain MKFMKIGSKLDSFKTDGNNVRYVENELASDISVDVEGSRFCLHKFPLLSKCACLQKLLSSTDKNNIDDIDISGIPGGPTAFETCAKFCYGMTVTLSAYNVVATRCAAEYLGMHETVEKGNLIYKIDVFLSSSLFRSWKDSIIVLQTTKPFLPLSEDLKLVSLCIDAIATKACVDVSHVEWSYTYNKKKLAEENNGADSIKARDVPHDWWVEDLCELEIDYYKRVIMNIKTKCILGGEVIGEALKAYGYRRLSGFNKGVMEQGDLVKHKTIIETLVWLLPAEKNSVSCGFLLKLLKAVTMVNSGEVVKEQLVRRIGQQLEEASMAELLIKSHQGSETLYDVDLVQKIVMEFMRRDKNSEIEVQDDEDGFEVQEVRKLPGILSEASKLMVAKVIDSYLTEIAKDPNLPASKFIDVAESVTSIPRPAHDALYRAIDMFLKEHPGITKGEKKRMCKLMDCRKLSVEACMHAVQNDRLPLRVVVQVLFFEQVRAAASSGSSTPDLPRGMGRELRSCGTYGSSRSVPTVMEDEWEAVATEEEMRALKSEIAALKLQEESGRKSMDRAGVTAISKIRSLIMSKKIFGKKVQLQSKGGGEKNNGGGGGGSDSSESLGSMNAAEETAKTATPSRNLTRRVSVS
B2: gdh (Bacillus subtilis, UniProt P12310); chain MYPDLKGKVVAITGAASGLGKAMAIRFGKEQAKVVINYYSNKQDPNEVKEEVIKAGGEAVVVQGDVTKEEDVKNIVQTAIKEFGTLDIMINNAGLENPVPSHEMPLKDWDKVIGTNLTGAFLGSREAIKYFVENDIKGNVINMSSVHEVIPWPLFVHYAASKGGIKLMTETLALEYAPKGIRVNNIGPGAINTPINAEKFADPKQKADVESMIPMGYIGEPEEIAAVAAWLASKEASYVTGITLFADGGMTQYPSFQAGRG
B3: UGT1A1 (Homo sapiens, UniProt P22309); chain HAGKILLIPVDGSHWLSMLGAIQQLQQRGHEIVVLAPDASLYIRDGAFYTLKTYPVPFQREDVKESFVSLGHNVFENDSFLQRVIKTYKKIKKDSAMLLSGCSHLLHNKELMASLAESSFDVMLTDPFLPCSPIVAQYLSLPTVFFLHALPCSLEFEATQCPNPFSYVPRPLSSHSDHMTFLQRVKNMLIAFSQNFLCDVVYSPYATLASEFLQREVTVQDLLSSASVWLFRSDFVKDYPRPIMPNMVFVGGINCLHQNPLSQEFEAYINASGEHGIVVFSLGSMVSEIPEKKAMAIADALGKIPQTVLWRYTGTRPSNLANNTILVKWLPQNDLLGHPMTRAFITHAGSHGVYESICNGVPMVMMPLFGDQMDNAKRMETKGAGVTLNVLEMTSEDLENALKAVINDKSYKENIMRLSSLHKDRPVEPLDLAVFWVEFVMRHKGAPHLRPAAHDLTWYQYHSLDVIGFLLAVVLTVAFITFKCCAYGYRKCLGKKGRVKKAHKSKTH
B4: enzyme (Saccharina japonica, UniProt A0A097IUE3); chain QQLGKTASMATVSSLGIDKATGIKNPTTVHRNLPYPEVFEHEVKHKEGEVTSNGTFCVSTGQFTGRSPKDKYFVKQAPSDKNLDWGKVNVGVAPDVFKNIYKKAVKHYNDNVEKMYVFDGYCGTSPKSRKNVRIITELAWQHHFAKNMFIRPESEAEVADFAPDFTIVNACKVVNDDYKELGLNSEVAVVFNVEERKAVITGTWYGGEMKKGIFSMMNYWLPLDGVMAMHCSANKGKNGDTALFFGLSGTGKTTLSADPDRYLIGDDEHGWDDDGIFNFEGGCYAKTINLSHKNEPEIYDAIKKDALLENVIIKGNGDPDYTDVSKTENTRVSYPIYHIDNYEPSGMGGHPNSIVFLTCDAFGVLPPVSRLSAGQAMYHFLSGYTAKVAGTERGVTEPTPNFSACFGAAFLTLHPTAYADLLQKKLDTHGTQCFLINTGWTGGGYGVGKRMSIKATRACVNSVLDGSINKTKFTADPVFGFEVPADLPGVPSKVLNPRDAWSDKESYDTTRTKLAGMFKDNFTKFVKPGVTNYTAYGPK
B5: enzyme C74S (UniProt A0A0P0CH59); chain MRIALFSDIHANLPALEAVLANMETQQLDAIYCLGDLVGYAPWPNEVVAEIRKRRIPTIAGNYDEGVGLWSPNSGCAYKTDTEKDLGQQSIDFTNNVVTEETRKYLRMLPRQLRLTFMDGSKEENKIELLLVHGSPRKINEYLFEDRPEKSFLKMMEEANADLLFFGHTHKPYHRAMPYEHEGQTRYRHAINIGSVGKPKDGDPRTGYVVVELTPESSLTQKDSIKVEFIRVPYDVETAAQAVEASPLPNEFAQMLRTA
B6: RPT3 (Arabidopsis thaliana, UniProt Q9FMF5); chain MMWESESDGGVGVGGGGGREYGDGVLSSNKHGGVKTDGFELRGQSWFVATDIPSDLLVKIGDMNFHLHKYPLLSRSGKMNRLIYESRDPDPTILILDDLPGGPEAFELASKFCYGVPVDLTATNISGLRCAAEYLEMTEDLEEGNLIFKTEAFLSYVVLSSWRDSILVLKSCEKLSPWAENLQIVRRCSESIAWKACSNPKGIRWAYTGKAPSPSTTNFAGSSPRWNESKDSSFYCSPSRNTNSQPVPPDWWFEDVSILRIDHFVRVITAIKVKGMRFELLGAVIMHYAGKWLPGLIKEGGVAIAPAMSSAIGGGLGLGGDEMSISCGSNSSGGSSGPDWKGGLHMVLSAGKTNGHQDSVACLAGLGISPKDQRMIVESLISIIPPQKDSVTCSFLLRLLRAANMLKVAPALITELEKRVGMQFEQATLQDLLIPGYNNKGETMYDVDLVQRLLEHFLVQEQTEGSSPSRMSPSPSQSMYADIPRGNNNNGGGGGGNNQNAKMRVARLVDSYLTEVARDRNLPLTKFQVLAEALPESARTCDDGLYRAIDSYLKAHPTLSEHERKRLCRVMDCQKLSMDACMHAAQNERLPLRVVVQVLFSEQVKISNALANTSLKESTTLGEAMGTYQPMIPNRKTLIEATPQSFQEGWAAAKKDINTLKFELETVKTKYVELQNEMEVMQRQFEKTGKVKNTPSSSAWTSGWKKLSKLTKMSGQESHDISSGGEQAGVDHPPPRKPRRWRNSIS
B7: bxlB (Aspergillus nidulans, UniProt Q5ATH9); chain NYPDCTTGPLSELPICDTSLSPLERAKSLVSALTLEEKINNTGHEAAGSSRLGLPAYNWWNEALHGVAEKHGVSFEESGDFSYATSFPAPIVLGAAFNDALIRRVAEIISTEARAFSNSDHAGIDYWTPNVNPFKDPRWGRGQETPGEDPLHCSRYVKEFVGGLQGDDPEKPKVVATCKHLAAYDLEEWGGVSRFEFDAKVSAVDLLEYYLPPFKTCAVDASVGAFMCSYNALNGVPACADRYLLQTVLREHWGWEGPGHWVTGDCGAVERIQTYHHYVESGPEAAAAALNAGVDLDCGTWLPSYLGEAERQGLISNETLDAALTRLYTSLVQLGYFDPAEGQPLRSLGWDDVATSEAEELAKTVAIQGTVLLKNIDWTLPLKANGTLALIGPFINFTTELQSNYAGPAKHIPTMIEAAERLGYNVLTAPGTEVNSTSTDGFDDALAIAAEADALIFFGGIDNTVEEESLDRTRIDWPGNQEELILELAELGRPLTVVQFGGGQVDDSALLASAGVGAIVWAGYPSQAGGAGVFDVLTGKAAPAGRLPITQYPKSYVDEVPMTDMNLQPGTDNPGRTYRWYEDAVLPFGFGLHYTTFNVSWAKKAFGPYDAATLARGKNPSSNIVDTFSLAVTNTGDVASDYVALVFASAPELGAQPAPIKTLVGYSRASLIKPGETRKVDVEVTVAPLTRATEDGRVVLYPGEYTLLVDVNDEYPTAKFEIKGDVQVLEKFPLSGNDSD
B8: enzyme (Sargassum horneri, UniProt A0A097IUG6); chain SPMAVASPSGFQKAMKTTLSSLGIDKATGITKPTTIYRNLPYPEVFKHEEQNKEGEVTKNGTFCVSTGQFTGRSPKDKYFVKQAPSDGKLDWGKINKGVASEVYKNIYDKAVKHYNTNVDKMYVFDGYCGTSPKSRKNVRIITELAWQHHFAKNMFIRPETEEEVANFVPDFTIINACKIVNEDYKELGLNSEVAVVFNVEESKAVITGTWYGGEMKKGIFSMMNYWLPLDGVMSMHCSANKGKDGDTALFFGLSGTGKTTLSADPARYLIGDDEHGWDDDGIFNFEGGCYAKTVNLSRENEPEIYDAIKRDALLENVIIKKNGEPDYADVSRTENTRVSYPIYHIDNYEPSGMGDHPKSIVFLTCDAFGVLPPVSRLSPGQAMYHFLSGYTAKVAGTERGVTEPTPNFSAGFGAAFLTLHPTVYADLLQEKLDKHGTQCFLINTGWTGGGYGVGKRMSIKATRACVDAVLDGSINKTKFTKEPVFGFEVPQELPNVPSKVLNPREAWSDKASYDATRTKLGDMFKNNFTKFVKPGMTDYTAYGPK
Chain of UniProt Q9C969 (whole entry, looked up): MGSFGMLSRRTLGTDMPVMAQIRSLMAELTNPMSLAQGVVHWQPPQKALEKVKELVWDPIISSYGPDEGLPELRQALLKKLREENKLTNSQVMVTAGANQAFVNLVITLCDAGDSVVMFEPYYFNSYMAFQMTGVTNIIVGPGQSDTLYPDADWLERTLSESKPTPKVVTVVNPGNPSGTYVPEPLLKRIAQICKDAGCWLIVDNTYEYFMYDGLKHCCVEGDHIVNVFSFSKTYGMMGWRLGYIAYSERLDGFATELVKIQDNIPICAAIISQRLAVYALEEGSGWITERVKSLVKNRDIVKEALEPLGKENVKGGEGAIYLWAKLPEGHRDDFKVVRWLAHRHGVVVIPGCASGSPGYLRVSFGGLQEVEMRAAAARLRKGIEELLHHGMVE
Chain of UniProt P0AGF6 (whole entry, looked up): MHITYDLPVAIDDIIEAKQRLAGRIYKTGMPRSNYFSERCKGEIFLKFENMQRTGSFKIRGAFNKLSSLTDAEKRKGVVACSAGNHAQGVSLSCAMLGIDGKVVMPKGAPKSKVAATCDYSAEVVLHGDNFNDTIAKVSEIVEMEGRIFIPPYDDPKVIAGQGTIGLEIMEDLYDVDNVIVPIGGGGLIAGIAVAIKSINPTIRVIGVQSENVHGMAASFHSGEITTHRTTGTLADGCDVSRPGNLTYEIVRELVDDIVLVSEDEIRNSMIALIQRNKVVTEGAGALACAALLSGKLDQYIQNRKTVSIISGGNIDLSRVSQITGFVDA
Chain of UniProt P06133 (whole entry, looked up): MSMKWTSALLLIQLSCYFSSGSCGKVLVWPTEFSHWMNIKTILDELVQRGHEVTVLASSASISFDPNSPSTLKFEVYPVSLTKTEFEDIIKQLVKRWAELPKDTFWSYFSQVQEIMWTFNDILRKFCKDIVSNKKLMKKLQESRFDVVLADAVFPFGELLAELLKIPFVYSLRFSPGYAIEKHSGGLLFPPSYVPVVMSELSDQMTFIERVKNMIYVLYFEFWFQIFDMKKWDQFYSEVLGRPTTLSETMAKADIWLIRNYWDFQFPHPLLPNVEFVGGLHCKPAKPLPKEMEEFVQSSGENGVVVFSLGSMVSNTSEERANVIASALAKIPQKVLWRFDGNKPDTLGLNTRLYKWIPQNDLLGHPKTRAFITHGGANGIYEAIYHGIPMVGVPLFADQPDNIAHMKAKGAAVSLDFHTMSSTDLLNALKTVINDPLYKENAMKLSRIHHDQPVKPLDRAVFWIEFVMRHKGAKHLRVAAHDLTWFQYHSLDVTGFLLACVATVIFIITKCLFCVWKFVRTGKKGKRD
Chain of UniProt P00723 (whole entry, looked up): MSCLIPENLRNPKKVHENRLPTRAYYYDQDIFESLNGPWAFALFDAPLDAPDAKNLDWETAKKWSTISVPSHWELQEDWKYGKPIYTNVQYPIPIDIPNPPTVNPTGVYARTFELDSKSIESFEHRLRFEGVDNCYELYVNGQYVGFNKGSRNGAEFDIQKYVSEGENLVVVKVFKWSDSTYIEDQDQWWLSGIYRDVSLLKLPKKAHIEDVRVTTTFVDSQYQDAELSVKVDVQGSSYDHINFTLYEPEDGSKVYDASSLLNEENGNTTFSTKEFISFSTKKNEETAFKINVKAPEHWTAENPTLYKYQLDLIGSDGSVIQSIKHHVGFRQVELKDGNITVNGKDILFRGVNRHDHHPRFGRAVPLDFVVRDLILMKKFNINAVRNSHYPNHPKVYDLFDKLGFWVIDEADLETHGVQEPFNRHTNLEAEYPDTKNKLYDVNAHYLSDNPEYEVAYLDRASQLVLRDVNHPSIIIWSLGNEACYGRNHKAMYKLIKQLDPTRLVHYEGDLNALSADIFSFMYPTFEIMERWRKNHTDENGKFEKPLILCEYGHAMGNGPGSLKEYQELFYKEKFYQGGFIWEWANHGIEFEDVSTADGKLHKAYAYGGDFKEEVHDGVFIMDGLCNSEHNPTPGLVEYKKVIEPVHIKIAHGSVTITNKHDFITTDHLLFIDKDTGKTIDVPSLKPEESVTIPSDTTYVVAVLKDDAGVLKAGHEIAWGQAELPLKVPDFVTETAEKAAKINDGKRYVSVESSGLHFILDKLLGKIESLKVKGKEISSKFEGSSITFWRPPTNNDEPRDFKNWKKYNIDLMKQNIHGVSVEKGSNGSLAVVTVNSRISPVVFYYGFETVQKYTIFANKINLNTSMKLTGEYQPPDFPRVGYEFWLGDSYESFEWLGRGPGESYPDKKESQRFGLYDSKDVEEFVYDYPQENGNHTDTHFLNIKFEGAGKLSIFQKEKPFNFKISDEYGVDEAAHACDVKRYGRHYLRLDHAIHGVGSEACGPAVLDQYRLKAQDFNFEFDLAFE

Molecule | substrate | pH | temperature | setting | with | Vmax
gdh E198C (Bacillus subtilis) | NC(=O)c1ccc[n+]([C@@H]2O[C@H](COP(=O)(O)OP(=O)(O)OC[C@H]3O[C@@H](n4cnc5c(N)ncnc54)[C@H](O)[C@@H]3O)[C@@H](O)[C@H]2O)c1 | pH 8 | 45 °C | – | – | 588 µmol/min/mg
B1 (enzyme) | Nc1nc2c(ncn2[C@@H]2O[C@H](COP(=O)(O)OP(=O)(O)OP(=O)(O)O)[C@@H](O)[C@H]2O)c(=O)[nH]1 | pH 7.5 | 30 °C | – | – | 3.07 µmol/min
enzyme (Nicotiana tabacum, UniProt A0A1S3XCJ5) | O=C(O)[C@H](O)CO | pH 7.8 | 30 °C | – | – | 37.7 µmol/min/mg
enzyme (UniProt A0A097IUD8) | C=C(OP(=O)(O)O)C(=O)O | pH 6 | 25 °C | – | 2 mM ADP | 32 µmol/min/mg
B2 (gdh) | NC(=O)c1ccc[n+]([C@@H]2O[C@H](COP(=O)(O)OP(=O)(O)OC[C@H]3O[C@@H](n4cnc5c(N)ncnc54)[C@H](O)[C@@H]3O)[C@@H](O)[C@H]2O)c1 | pH 8 | 50 °C | – | – | 270 µmol/min/mg
B3 (UGT1A1) | C[C@]12CC[C@@H]3c4ccc(O)cc4CC[C@H]3[C@@H]1CC[C@@H]2O | – | 37 °C | not purified | – | 7.4e-05 µmol/min/mg
B4 (enzyme) | Nc1ncnc2c1ncn2[C@@H]1O[C@H](COP(=O)(O)OP(=O)(O)O)[C@@H](O)[C@H]1O | pH 6.5 | 25 °C | – | 16 mM PEP | 23.6 µmol/min/mg
B5 (enzyme C74S) | O=[N+]([O-])c1ccc(OP(=O)(O)O)cc1 | pH 7 | 37 °C | – | Ni2+ 0.25 mM | 0.137 µmol/min/mg
UGT1A6 (Homo sapiens, UniProt P19224) | O=c1cc(C(F)(F)F)c2ccc(O)cc2o1 | – | 37 °C | not purified | – | 0.0133 µmol/min/mg
LAC4 (Kluyveromyces lactis, UniProt P00723) | O=[N+]([O-])c1ccccc1O[C@@H]1O[C@H](CO)[C@H](O)[C@H](O)[C@H]1O | pH 6.5 | 30 °C | – | – | 249 µmol/min/mg
enzyme (Arabidopsis thaliana, UniProt Q9C969) | O=C(O)C(=O)Cc1ccccc1 | – | – | – | – | 1800 µM/min/mg and 1600 µM/min/mg
B6 (RPT3) | Nc1nc2c(ncn2[C@@H]2O[C@H](COP(=O)(O)OP(=O)(O)OP(=O)(O)O)[C@@H](O)[C@H]2O)c(=O)[nH]1 | pH 7.5 | 30 °C | – | – | 3.36 µmol/min
enzyme (Lacticaseibacillus rhamnosus, UniProt A0A7S7JIA0) | C[C@@H]1O[C@@H](Oc2ccc([N+](=O)[O-])cc2)[C@@H](O)[C@H](O)[C@@H]1O | pH 5 | 40 °C | – | – | 2.49 µmol/min
B7 (bxlB) | O=[N+]([O-])c1ccc(O[C@@H]2OC[C@@H](O)[C@H](O)[C@H]2O)cc1 | pH 5 | 50 °C | – | – | 11 µmol/min/mg
enzyme (Escherichia coli, UniProt P0AGF6) | C[C@@H](O)[C@H](N)C(=O)O | pH 7.5 | 23 °C | apparent, not purified | PLP 0.1 mM, L-Thr | 3.5 µmol/min/mg
B8 (enzyme) | C=C(OP(=O)(O)O)C(=O)O | pH 6.5 | 25 °C | – | 2 mM ADP | 39.2 µmol/min/mg
UGT2B4 (Homo sapiens, UniProt P06133) | CC(C)=CCc1cc2c(cc1O)O[C@H](c1ccc(O)cc1)CC2=O | pH 7.4 | – | – | – | 0.000428 µmol/min/mg

Excerpt of the above:
Molecule | substrate | pH | temperature | setting | with | Vmax
B7 (bxlB) | O=[N+]([O-])c1ccc(O[C@@H]2OC[C@@H](O)[C@H](O)[C@H]2O)cc1 | pH 5 | 50 °C | – | – | 11 µmol/min/mg
enzyme (Escherichia coli, UniProt P0AGF6) | C[C@@H](O)[C@H](N)C(=O)O | pH 7.5 | 23 °C | apparent, not purified | PLP 0.1 mM, L-Thr | 3.5 µmol/min/mg
